Measured values collected from several papers.
Each numbered part is a random draw from the data of one study; scales do not carry over between parts. Changes are numbered by the printed parent chain.

Series 1
Target: Centromere-binding protein 1, full length, His-tagged (CBF1, Saccharomyces cerevisiae, UniProt P17106, residues 1-351)
Chain of UniProt P17106 (whole entry, looked up): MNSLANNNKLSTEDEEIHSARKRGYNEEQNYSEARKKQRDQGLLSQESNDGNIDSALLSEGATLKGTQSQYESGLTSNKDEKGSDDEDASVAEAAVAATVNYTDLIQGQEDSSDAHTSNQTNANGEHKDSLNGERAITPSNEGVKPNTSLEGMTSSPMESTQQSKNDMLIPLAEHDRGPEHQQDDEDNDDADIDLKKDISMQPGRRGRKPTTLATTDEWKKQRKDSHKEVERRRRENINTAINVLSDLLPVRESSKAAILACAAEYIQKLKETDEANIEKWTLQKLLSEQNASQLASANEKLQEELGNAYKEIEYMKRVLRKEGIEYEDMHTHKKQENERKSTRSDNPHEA
Method: competition protein-binding microarray
Molecule type: double-stranded DNA, one strand shown
Matrix: in vitro
Concentration: 2 µM
Setting: whole 60-bp probe, lowest competitor level
Added: Pho4 competitor, 0.05 µM
Direction: higher = stronger binding
Shared flanks, not repeated: … GTCTTGATTCGCTTGACGCTGCTG
Oligonucleotide | fluorescence intensity [a.u.]
CTAAACTACGCCTGGCACGTGGGTAATGAAGTATAC | 1170
CGCGCAGGATGCCATCACGGGCGATGGGACCACTAC | 70.7
TGCGCAACAACTTACCACGTGTTTTTATGTCTAGAA | 1740
TTCAAGAAAAATCCACGCGTGTGGACCTTTTTTTTC | 79.7
GTTGTTATTTTTTAGGTCGTGATGGGTGTTCCTTGT | 99.2
AAAAAGTAAAGTTAGCACGTGATGGTTTAGAAAATC | 7360
CTTCTGTAAATTTGTCACGGTACTTGACGCGCCCCG | 193
CTTCTGTAAATTTGCCGGGTGGGTGGACGCGCCCCG | 88.8
GCCCAAAGACCCGGCCACGTTCAGGCCCCATCAATA | 61.2
CGTCCTAGTGATTGTCACGGGACTTCCATGAGGAAG | 1340
TAATACTATCTCCAACACGTGAATTAGCAAGCCAAA | 1140
AAAGCGGTAATTTGGTGCGTGGGTGCAGATATCTAT | 72.1
CGGGGTTAAGTTTTTCACGTGCGTTGCTTGCAGCAG | 494
CATACCCAACCTTGTCACGACACTTAAGATATTTGT | 233
CTTTCCCGATCTTTTCACGTGTATTTAGCACATTTG | 833
CATACCCAACCTTTTCACGTGGACTAAGATATTTGT | 1010
CTCCGGCGGCCATTTTACGTGACGGAGCATCCCTTA | 61.8
CTTTCCCGATCTTGTCACGTGGGTGTAGCACATTTG | 4790
CTTTCCCGATCTTGTGGAGTGGGTGTAGCACATTTG | 67.1
TCTGATTCGTTAAAATACGTGATGGTGTTATTTTTA | 112
AAGGCAATCAGGATGCACGTCGCCGTAAGATTGCAA | 69.1
CTTCTGTAAATTTGGTGTGTGGGTGGACGCGCCCCG | 89.4
CTTTCCCGATCTTGATAAGTGGGTGTAGCACATTTG | 76.3

Series 2
Target: RNA binding protein fox-1 homolog 2, RRM domain, GST-SBP tag (RBFOX2, Homo sapiens, UniProt O43251-10, residues 100-194)
Method: RNA Bind-n-Seq
Molecule type: RNA
Matrix: in vitro
Concentration: 365 nM
Setting: natural RNA segment, single round, ends assumed
Relative to: no-protein control
Direction: higher = stronger binding
Shared flanks, not repeated: GGGAGUUCUACAGUCCGACGAUC … UGGAAUUCUCGGGUGCCAA
Target sequence (chain): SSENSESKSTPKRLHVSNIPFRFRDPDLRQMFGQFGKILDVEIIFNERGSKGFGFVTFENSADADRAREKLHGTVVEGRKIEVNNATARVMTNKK
Oligonucleotide | RBNS enrichment (R)
UAUAAUACUGUUAAAUACCCCAUGCUUUGAUCAGGUGGAAAAAAUCAAUAAAGUUUUAAAAAGUAAAGCUGCUCCCAGUGUCAUCAUUUAUAUCCUGUCAAGCCACGGGU | 0.592
GAUGGUUAGGUUGUUCUGUAGACUGGCAAUGAGAUUAGAAGUUCCUAGCUUCAGAUAAAGAUGAAAGAGAGGAGAUCAUUGUCUUCUGUCUUCUUCUGGCCCUGGGUUUA | 0.485
UUAGUCCUUGUCAGCCUCACAGAGGUCUGCGCCCGACACUUCUGCCCUUUGAGACAAAAGAAACAGGCCCAGCACGAGUGGAAGUGGGUGUCUGUGUUUCUGUUUGCACU | 2.17
GGAGGUCAAGUAAGGCAGGAAGGUCCAGCCUGAGCUGGAUUCGGGACUCCAACACCCUGGAGUGGUUCCGUCAGACCAUGAGGAGCCAAGACCAGCAGGUCCCACAGCCG | 0.304
UAAUAGCUCCUUUCUCCUUCCUCUGAUUUUUAUAUGCUGCUAAAUAUAUUUUAAAUAUACUGUGUUUGCACACACUGGUAGCUAUGUGUUUGCACACAUUGGUAGACUGU | 0.607
AAGCUAAUAGGAGUCUGACCCGAGGGCCUGCUGCUUCCUGGUUAAGUAUCUUUUGAGAUUCUAGAACACAUGGGAGCUUUUUAUUUUCGGGGAAAAACCGUAUUUUUUUC | 0.326
GGGAGGUCGAUGAGCCUGUGCUGGCAUCCGCGGGCCCCACGCUUUGCCAACUCCUCCAGCCACAGGCAAGGCCACGGCUCCGGGCUGUUGCGCUCUAAGGGUUCUGUGAU | 0.449
AAAGCAGUAAGUGGUGCAGUAAAAUACUUAAGUUAUUCAAAGAAUGUUAUCUUUCUUGCAAGAGUAAUUUAAGCACAUGGGAAAGAUUCUAGACUUUUUGUUUCUUGCAA | 0.595
ACAUUCUAGUUUGUGGAGGGUUAUUUAAAAAAACAAAAAAGGAAGAUGGUCAAGUUUGUAAAAUAUUUGUUUGUGCUUUUUCCCCCUCCUUACCUGACCCCCUACGAGUU | 0.912
UGUGCUGUGGAAUGUGAUGCUUGUCCUCAUAUAGUCUCAGUUUCUCUUUUUAUGCAGAUAUUUGUGACCUUCAUCUUGCACAUACAACCAAAUUAUUUUAAGGUGCAUAG | 0.391
UAGUCUUCAGUUUCAUUUUCCUGUGCCCUGUGGUAGUUGGAAACAAAUCAUAAUGUAUUAUUUAAAUGUUUAACAUCAUUGCAUAACAGCGUUUAUUAUACAGUGGCAGA | 0.346
UAUAUGGGGACUGGAUCCCAGUAAGGCUCACAAGGCUAAGGGGAACUUAAGUAUGGGAUACAGCACAUGGAUGCACCCCUCUGUGUGUCAGGCAUCCUCCAUGUGGACUC | 0.527

Series 3
Target: Interferon regulatory factor 3, full length, phosphomimetic (IRF3, Homo sapiens, UniProt Q14653, residues 1-427, S386D/S396D/S398D/S402D/T404D/S405D)
Method: protein-binding microarray
Molecule type: double-stranded DNA, one strand shown
Matrix: in vitro
Concentration: 2540 nM top
Setting: 60-bp whole probe
Added: salmon DNA 0.4 mg/ml
Relative to: random background probes
Direction: higher = stronger binding
Shared flanks, not repeated: GCCTAGCAC … GTCTTGATTCGCTTGACGCTGCTG
Construct (chain): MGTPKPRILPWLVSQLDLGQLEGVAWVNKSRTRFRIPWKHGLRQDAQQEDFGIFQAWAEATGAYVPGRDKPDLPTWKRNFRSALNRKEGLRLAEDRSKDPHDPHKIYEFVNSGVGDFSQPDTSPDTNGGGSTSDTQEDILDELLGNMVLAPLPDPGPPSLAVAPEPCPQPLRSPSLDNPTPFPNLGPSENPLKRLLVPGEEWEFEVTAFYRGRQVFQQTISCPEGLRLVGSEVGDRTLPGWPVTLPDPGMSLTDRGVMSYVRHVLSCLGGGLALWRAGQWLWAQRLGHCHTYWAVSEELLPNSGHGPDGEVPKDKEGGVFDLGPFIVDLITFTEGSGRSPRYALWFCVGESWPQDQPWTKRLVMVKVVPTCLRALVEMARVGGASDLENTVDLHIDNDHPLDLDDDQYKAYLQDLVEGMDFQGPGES
Oligonucleotide | fitted relative affinity
TCAGTCTTCCCTTTTAAACTGTGCTAG | 3.31 z-score
TTAGGACTGGTTATCGGTTAGTGCTAG | 0.2 z-score
TGCCCTCTAACTTCCCAATGGTGCTAG | -0.0369 z-score
CCCATTCTGAATTCGAATGCGTGCTAG | 2.65 z-score
CAATATATATATTATATATTTGTGCTA | 1.1 z-score
ATTGATAGTTTCACAATGCCGTGCTAG | 3.92 z-score
TCATGTTTGAGAAATCAGACTGTGCTA | -0.0317 z-score
GACGAACTGAGTTCCGAGACGTGCTAG | 0.113 z-score
GACGGACTGCTTATCTTGACGTGCTAG | -0.334 z-score
TTAGGTTTGCTTCTCCTTTAGTGCTAG | 1.42 z-score
TCATTTTTTTTTGTATTACTGTGCTAG | 1.16 z-score
GACGGTCTCCTACAGCTGACGTGCTAG | 0.333 z-score
GACGGTTTCGGGTTTAGGGACGTGCTA | 5.73 z-score
GACGATTTCGGGTTTCGGGACGTGCTA | 3.03 z-score
GACGGTCTCCTACTGCGGACGTGCTAG | 1.23 z-score
GACCGTCTCGGTATCGGGACGTGCTAG | 2.41 z-score
GTCGATTTCGGGTATCGAGACGTGCTA | 2.84 z-score
GAAGGACTGGACTATCGGGACGTGCTA | -0.642 z-score
GACTGTTTCCTTATCCTGACGTGCTAG | 7.12 z-score
GACGGACTGCTTCTCCTGTCGTGCTAG | 0.0413 z-score
GACGATCTCACACTGGAGACGTGCTAG | 0.382 z-score
GAATATATGTATATATGTGTGTGCTAG | 0.135 z-score
TTAGATTTCGGGTTTCAATTAGTGCTA | 2.58 z-score
GACGATATCGGGTATCTAGACGTGCTA | 0.25 z-score
TCATAGTTTCTTTTCTTACTGTGCTAG | 5.81 z-score

Series 4
Target: Histone acetyltransferase KAT6A, winged helix 1, GST fusion (KAT6A, Homo sapiens, UniProt Q92794, residues 1-85)
Method: protein binding microarray
Molecule type: double-stranded DNA, one strand shown
Matrix: in vitro
Concentration: not given
Setting: 8-mer, flanks averaged, mean of 2 arrays, mostly near background
Relative to: not given
Direction: higher = stronger binding
Construct (chain): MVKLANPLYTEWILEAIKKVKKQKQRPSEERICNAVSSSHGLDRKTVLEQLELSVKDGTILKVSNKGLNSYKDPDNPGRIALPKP
Oligonucleotide | E-score
AACGGACT | 0.15
CCATTAAC | -0.103
CAGACCTC | 0.00405
TATGGCCA | -0.223
GGTAAAAA | 0.0444
CCATGCTC | -0.209
ACCGAATC | 0.0815
AGCCAAGG | -0.164
ACAAGGTC | -0.094
ACACCCCC | -0.125
AATCGAAC | -0.12
GACTCGAC | -0.0926
ACTGGCGC | 0.188
CCCAACTA | -0.242
AGTCGTCG | -0.0277
CAGCGCTG | 0.383
CGGTAGGC | 0.154
GAAGGATA | -0.093
ATCTTACC | -0.0487
CGCCGACC | 0.42

Series 5
Target: CCNB3, cyclin fold, Cln2 fusion (human)
Method: yeast growth competition, sequencing
Matrix: yeast
Setting: weak parent motif
Relative to: not given
Direction: higher = stronger binding
Starting sequence: BORA docking peptide (human); SSLRRKLFLDGNG; partner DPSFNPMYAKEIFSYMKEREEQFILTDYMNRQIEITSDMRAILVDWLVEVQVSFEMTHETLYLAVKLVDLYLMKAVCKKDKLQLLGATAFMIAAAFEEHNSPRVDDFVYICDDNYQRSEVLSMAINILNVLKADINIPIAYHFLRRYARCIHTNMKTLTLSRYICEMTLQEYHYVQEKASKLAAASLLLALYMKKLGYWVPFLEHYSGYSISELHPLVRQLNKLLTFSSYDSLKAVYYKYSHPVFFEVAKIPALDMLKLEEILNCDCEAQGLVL
Substitution | normalised enrichment score
S2A | 0.694
L3A | 0.802
N12A | 1.01
R5K | 0.615
L9F | 0.795
R5A L7A | -0.202
L7A | -0.0252
R4A | 0.364
F8A | 0.365
R5K F8L | 0.0957
G13A | 0.0673

Series 6
Target: Sal-like protein 4, full length isoform A (SALL4, Homo sapiens, UniProt Q9UJQ4, residues 1-1053)
Chain of UniProt Q9UJQ4 (whole entry, looked up): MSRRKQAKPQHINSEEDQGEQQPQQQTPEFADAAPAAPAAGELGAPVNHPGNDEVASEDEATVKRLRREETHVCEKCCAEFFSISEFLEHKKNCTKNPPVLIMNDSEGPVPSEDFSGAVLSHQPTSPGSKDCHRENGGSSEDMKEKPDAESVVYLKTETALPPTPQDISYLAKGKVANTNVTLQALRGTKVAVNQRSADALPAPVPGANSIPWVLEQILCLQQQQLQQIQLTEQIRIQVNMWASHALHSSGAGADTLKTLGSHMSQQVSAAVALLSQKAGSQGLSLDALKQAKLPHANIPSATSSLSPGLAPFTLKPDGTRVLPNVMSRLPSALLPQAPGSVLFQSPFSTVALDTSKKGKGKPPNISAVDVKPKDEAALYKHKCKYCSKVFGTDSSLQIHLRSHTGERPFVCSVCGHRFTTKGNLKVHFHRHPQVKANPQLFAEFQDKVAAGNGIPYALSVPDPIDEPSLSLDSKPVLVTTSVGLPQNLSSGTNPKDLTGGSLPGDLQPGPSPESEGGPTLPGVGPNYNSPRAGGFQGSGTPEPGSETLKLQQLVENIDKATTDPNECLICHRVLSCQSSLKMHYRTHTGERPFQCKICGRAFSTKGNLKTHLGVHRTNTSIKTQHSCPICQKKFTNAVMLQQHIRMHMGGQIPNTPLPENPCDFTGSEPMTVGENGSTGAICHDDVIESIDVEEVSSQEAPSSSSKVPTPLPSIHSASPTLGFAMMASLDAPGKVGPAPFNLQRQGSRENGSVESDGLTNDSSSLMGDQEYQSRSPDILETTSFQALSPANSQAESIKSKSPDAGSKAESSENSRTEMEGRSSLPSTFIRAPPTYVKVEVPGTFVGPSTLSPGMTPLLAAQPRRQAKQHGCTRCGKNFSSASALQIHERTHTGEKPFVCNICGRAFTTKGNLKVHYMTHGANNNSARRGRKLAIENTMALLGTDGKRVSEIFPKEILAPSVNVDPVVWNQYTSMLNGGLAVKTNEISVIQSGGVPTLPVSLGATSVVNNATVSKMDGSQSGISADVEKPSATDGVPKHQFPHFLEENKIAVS
Method: universal PBM
Molecule type: double-stranded DNA, one strand shown
Matrix: in vitro
Concentration: 600 nM
Setting: 8-mer, flanks averaged, mean of replicates
Direction: higher = stronger binding
Oligonucleotide | E-score
AAAATCAT | 0.379
TATGTTCA | 0.24
CGAGGTAG | -0.337
GGCGCCCC | -0.409
CGCTGGCA | -0.212
AAAGCACA | 0.0896
CGAGAAAA | 0.0733
GTGGTCAA | 0.015
CCAACCCG | -0.341
AATACTCC | 0.0773
GCTAGGAC | -0.091
ATGTGTGG | -0.00458
AACTCGCT | 0.0122
TAGATAGA | 0.169
TGCCTCCA | -0.118
AATTACTC | 0.305
TAGCAAGA | 0.185
TACGGCCA | -0.158
ACGGTTCG | -0.217
GGCCGACA | -0.253
ATATTCCC | 0.199
CCGGTCCG | -0.418
GGGATCGA | -0.175
AACTTGTA | 0.25
AATTCTGG | 0.0601
